Published values gathered from unrelated publications.
Numbered parts are unrelated; each lists some results of a single study. Values joined by “and” are separate records of one study, mostly repeats; a detail may differ.
Chain of UniProt P10721 (whole entry, looked up): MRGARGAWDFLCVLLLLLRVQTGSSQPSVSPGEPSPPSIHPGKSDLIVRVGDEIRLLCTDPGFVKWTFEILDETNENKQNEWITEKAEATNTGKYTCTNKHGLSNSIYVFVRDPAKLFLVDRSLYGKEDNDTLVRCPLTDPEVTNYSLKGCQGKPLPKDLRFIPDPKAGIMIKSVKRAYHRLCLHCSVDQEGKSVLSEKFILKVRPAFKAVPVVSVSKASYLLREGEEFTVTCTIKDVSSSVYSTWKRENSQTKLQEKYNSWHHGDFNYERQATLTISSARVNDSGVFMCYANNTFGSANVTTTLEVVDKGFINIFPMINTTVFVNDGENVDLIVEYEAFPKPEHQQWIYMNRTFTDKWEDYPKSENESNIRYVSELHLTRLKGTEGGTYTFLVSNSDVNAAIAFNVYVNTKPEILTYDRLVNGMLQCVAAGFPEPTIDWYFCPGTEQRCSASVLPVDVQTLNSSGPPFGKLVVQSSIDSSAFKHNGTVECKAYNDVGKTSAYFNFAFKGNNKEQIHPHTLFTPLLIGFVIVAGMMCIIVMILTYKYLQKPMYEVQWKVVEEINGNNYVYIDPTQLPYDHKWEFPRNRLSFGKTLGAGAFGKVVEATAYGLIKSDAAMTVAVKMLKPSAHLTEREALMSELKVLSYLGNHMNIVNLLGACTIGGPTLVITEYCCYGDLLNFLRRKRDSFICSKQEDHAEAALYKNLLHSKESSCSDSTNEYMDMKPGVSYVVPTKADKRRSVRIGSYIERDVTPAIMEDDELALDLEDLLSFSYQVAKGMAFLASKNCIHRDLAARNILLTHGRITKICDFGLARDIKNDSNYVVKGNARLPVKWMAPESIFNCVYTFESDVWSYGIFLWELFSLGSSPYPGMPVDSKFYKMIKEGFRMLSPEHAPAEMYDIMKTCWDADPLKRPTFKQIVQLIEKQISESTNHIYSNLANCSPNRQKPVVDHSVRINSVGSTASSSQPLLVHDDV
Chain of UniProt P53778 (whole entry, looked up): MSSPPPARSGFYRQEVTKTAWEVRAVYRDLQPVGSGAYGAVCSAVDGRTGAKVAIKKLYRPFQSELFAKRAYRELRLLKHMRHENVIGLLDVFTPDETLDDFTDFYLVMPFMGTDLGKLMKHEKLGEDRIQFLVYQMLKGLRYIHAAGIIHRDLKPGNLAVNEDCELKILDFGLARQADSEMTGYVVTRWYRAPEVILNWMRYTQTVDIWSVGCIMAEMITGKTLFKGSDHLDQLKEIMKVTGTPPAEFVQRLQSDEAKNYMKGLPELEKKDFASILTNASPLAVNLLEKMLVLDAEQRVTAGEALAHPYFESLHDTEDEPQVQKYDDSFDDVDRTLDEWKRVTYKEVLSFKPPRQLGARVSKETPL
Chain of UniProt Q9Y243 (whole entry, looked up): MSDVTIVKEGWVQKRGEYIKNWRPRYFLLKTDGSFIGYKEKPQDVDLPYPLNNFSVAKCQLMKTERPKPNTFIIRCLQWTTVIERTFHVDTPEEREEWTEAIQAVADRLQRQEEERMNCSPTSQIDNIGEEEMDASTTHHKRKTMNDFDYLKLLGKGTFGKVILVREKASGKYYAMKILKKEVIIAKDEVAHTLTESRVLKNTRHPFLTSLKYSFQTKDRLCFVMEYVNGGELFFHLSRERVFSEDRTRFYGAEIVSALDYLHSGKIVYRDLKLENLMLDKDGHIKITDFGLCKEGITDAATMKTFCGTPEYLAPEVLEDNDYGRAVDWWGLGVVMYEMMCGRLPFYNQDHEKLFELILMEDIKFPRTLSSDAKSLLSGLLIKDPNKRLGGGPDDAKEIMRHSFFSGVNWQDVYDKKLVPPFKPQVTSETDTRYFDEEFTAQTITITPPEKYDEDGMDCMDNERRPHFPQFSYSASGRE
Chain of UniProt Q8NI60 (whole entry, looked up): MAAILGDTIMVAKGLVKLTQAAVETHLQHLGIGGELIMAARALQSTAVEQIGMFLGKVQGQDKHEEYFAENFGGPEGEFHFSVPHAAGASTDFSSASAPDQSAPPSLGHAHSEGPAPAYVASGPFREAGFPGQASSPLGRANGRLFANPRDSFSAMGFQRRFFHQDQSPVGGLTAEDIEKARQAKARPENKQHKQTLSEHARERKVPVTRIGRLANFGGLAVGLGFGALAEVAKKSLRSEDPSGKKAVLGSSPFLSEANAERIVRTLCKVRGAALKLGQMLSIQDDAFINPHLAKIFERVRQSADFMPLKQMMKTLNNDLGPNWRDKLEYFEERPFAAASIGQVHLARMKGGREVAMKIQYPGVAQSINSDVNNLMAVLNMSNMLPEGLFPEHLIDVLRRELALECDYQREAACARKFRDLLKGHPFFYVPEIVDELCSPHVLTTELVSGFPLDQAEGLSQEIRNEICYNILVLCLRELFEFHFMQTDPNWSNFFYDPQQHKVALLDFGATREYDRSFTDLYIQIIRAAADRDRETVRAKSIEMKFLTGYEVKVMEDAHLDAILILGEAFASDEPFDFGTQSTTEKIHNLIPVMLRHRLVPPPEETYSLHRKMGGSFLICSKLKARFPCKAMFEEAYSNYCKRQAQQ
Chain of UniProt Q9BRS2 (whole entry, looked up): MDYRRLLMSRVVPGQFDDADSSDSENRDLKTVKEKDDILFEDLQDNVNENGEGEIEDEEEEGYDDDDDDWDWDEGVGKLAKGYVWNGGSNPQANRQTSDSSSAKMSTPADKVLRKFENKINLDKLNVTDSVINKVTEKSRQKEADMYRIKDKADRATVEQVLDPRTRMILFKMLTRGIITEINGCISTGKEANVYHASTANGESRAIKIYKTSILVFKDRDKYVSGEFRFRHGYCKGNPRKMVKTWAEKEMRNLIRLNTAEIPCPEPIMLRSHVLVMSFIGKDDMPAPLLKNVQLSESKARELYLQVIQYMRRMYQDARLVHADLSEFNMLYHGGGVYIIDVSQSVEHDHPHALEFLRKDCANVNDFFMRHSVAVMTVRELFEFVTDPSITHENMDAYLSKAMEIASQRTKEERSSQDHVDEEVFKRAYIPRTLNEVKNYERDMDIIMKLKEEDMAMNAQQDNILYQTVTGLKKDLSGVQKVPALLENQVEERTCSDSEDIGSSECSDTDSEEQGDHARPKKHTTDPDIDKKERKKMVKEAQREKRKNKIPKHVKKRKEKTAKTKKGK
Chain of UniProt Q9NWZ3 (whole entry, looked up): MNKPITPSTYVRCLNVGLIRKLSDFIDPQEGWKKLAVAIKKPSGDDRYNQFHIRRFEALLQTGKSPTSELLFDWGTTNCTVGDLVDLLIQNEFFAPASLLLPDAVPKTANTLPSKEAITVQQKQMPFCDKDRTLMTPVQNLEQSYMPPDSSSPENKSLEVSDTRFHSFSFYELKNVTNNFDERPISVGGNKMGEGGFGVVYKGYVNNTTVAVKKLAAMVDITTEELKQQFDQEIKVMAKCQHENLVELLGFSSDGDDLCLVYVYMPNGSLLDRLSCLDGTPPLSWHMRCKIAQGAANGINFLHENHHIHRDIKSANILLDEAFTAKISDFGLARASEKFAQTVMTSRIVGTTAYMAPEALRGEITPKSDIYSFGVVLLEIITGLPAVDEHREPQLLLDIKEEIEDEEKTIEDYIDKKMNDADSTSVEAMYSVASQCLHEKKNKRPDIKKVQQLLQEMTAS
Chain of UniProt P54764 (whole entry, looked up): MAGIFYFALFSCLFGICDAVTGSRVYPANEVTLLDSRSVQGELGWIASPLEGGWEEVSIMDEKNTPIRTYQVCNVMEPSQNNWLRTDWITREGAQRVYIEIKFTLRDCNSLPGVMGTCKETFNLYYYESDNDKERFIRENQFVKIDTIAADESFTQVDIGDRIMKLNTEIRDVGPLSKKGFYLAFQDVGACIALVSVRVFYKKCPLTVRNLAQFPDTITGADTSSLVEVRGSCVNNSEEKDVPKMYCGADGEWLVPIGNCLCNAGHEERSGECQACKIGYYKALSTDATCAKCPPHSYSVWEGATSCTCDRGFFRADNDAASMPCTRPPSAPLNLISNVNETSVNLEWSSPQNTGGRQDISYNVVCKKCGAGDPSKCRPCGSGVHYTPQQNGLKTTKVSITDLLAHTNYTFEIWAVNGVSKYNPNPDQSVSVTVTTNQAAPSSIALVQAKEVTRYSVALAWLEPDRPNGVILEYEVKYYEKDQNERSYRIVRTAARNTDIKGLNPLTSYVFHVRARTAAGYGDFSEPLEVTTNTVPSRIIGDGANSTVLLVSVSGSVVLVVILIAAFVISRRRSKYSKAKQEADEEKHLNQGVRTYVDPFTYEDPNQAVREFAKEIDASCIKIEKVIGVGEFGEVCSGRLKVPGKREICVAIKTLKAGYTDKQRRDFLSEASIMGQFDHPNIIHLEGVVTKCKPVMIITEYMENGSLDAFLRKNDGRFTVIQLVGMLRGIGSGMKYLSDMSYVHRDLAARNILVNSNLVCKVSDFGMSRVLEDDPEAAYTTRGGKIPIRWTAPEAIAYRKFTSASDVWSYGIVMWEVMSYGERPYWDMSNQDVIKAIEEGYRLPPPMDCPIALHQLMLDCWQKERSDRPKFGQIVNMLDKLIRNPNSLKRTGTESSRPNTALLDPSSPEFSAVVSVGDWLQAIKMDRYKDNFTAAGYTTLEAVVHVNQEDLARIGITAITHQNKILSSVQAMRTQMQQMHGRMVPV
Chain of UniProt Q15208 (whole entry, looked up): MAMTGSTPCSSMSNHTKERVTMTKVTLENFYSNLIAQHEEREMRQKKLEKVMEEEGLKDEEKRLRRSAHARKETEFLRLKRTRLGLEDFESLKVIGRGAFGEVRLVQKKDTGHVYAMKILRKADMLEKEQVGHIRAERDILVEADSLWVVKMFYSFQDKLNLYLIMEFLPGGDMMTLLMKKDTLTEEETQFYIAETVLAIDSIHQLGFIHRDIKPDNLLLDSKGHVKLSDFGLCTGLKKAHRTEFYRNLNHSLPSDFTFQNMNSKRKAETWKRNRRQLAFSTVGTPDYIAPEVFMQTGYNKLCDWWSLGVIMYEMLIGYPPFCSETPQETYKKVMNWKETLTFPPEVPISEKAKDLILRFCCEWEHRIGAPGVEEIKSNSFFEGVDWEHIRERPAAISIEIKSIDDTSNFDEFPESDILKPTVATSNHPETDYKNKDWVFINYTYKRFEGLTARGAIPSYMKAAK

Set 1
Structure (SMILES): CC(C)(O)c1cncc(-c2nc3ccc(F)cc3n2C2CC2)c1
Read-out: cell-free assay
Method: competition with immobilised ligand
Concentration: 1 µM
The remaining binding was 100% (eIF-2-alpha kinase GCN2, C-terminal kinase domain (EIF2AK4, Homo sapiens, UniProt Q9P2K8, S808G)).
For Dual specificity testis-specific protein kinase 1 (TESK1, Homo sapiens, UniProt Q15569): remaining binding read 100%.
For STE20-like serine/threonine-protein kinase (SLK, Homo sapiens, UniProt Q9H2G2): remaining binding read 100%.
The remaining binding was 100% (NUAK family SNF1-like kinase 1 (NUAK1, Homo sapiens, UniProt O60285)).
The remaining binding was 100% (Muscle, skeletal receptor tyrosine-protein kinase (MUSK, Homo sapiens, UniProt O15146)).
The remaining binding was 86% (Mast/stem cell growth factor receptor Kit, autoinhibited (KIT, Homo sapiens, UniProt P10721)).
For Ephrin type-A receptor 4 (EPHA4, Homo sapiens, UniProt P54764): remaining binding read 100%.
It gave 100% for remaining binding (Transient receptor potential cation channel subfamily M member 6 (TRPM6, Homo sapiens, UniProt Q9BX84)).
For Protein kinase C theta type (PRKCQ, Homo sapiens, UniProt Q04759): remaining binding read 100%.
It gave 100% for remaining binding (Mitogen-activated protein kinase kinase kinase 12 (MAP3K12, Homo sapiens, UniProt Q12852)).
The remaining binding was 100% (Serine/threonine-protein kinase RIO1 (RIOK1, Homo sapiens, UniProt Q9BRS2)).
It gave 100% for remaining binding (Mitogen-activated protein kinase kinase kinase 20 (MAP3K20, Homo sapiens, UniProt Q9NYL2)).
The remaining binding was 97% (Serine/threonine-protein kinase 32B (STK32B, Homo sapiens, UniProt Q9NY57)).
For NT-3 growth factor receptor (NTRK3, Homo sapiens, UniProt Q16288): remaining binding read 100%.
It gave 100% for remaining binding (Homeodomain-interacting protein kinase 4 (HIPK4, Homo sapiens, UniProt Q8NE63)).
The remaining binding was 100% (Atypical kinase COQ8A, mitochondrial (COQ8A, Homo sapiens, UniProt Q8NI60)).

Set 2
Read-out: AlphaScreen signal
Method: AlphaScreen counter screen
Matrix: His6 peptide without bromodomain
Concentration: 50 µM
Notes: assay interference check
With CN1CCN(CCOc2cc(OC3CCOCC3)c3c(Nc4c(Cl)ccc5c4OCO5)ncnc3c2)CC1 the inhibition was 16%.
The inhibition of CS(=O)(=O)O.Cn1cc(C2=C(c3cn(CCCSC(=N)N)c4ccccc34)C(=O)NC2=O)c2ccccc21 is reported as 96.8%.
The inhibition of Nc1nc2ccc([N+](=O)[O-])cc2c(=O)[nH]1 is reported as 6.9%.
Cl.Cn1cc(C2=C(c3c4n(c5ccccc35)CCC(CN)C4)C(=O)NC2=O)c2ccccc21 (centres unmarked) gave an inhibition of 93.7%.
For COc1cccc(Nc2ncc3c(n2)CCN(C(=O)OC(C)(C)C)C3)c1, the inhibition was 29%.
The inhibition of O=C1Nc2ccccc2C1=Cc1c(Cl)[nH]c2ccccc12 is reported as 59.6%.
For CC(C)(C)c1nc(-c2cccc(NS(=O)(=O)c3c(F)cccc3F)c2F)c(-c2ccnc(N)n2)s1, the inhibition was 18.6%.
The inhibition of CC(=O)NNC(=O)c1c(O)c2ccccc2[nH]c1=O is reported as 23.4%.
For O=C1Nc2ccc(Br)cc2C1=NNC(=S)NCC1CCCO1 (centres unmarked), the inhibition was 52.1%.
For CN(C)S(=O)(=O)c1ccc2c(c1)/C(=C/c1cc3c([nH]1)CCCC3)C(=O)N2, the inhibition was 60.1%.
CN1CCN(c2ccc3nc(-c4c(N)c5c(F)cccc5[nH]c4=O)[nH]c3c2)CC1 gave an inhibition of 66.6%.
For CNC(=O)c1c(F)cccc1Nc1nc(Nc2cc3c(cc2OC)CCN3C(=O)CN(C)C)nc2[nH]ccc12, the inhibition was 37.4%.
With Cc1c(NC(=O)OC[C@@H]2COCCN2)cn2ncnc(Nc3ccc4c(cnn4Cc4cccc(F)c4)c3)c12 the inhibition was 72.6%.
For CCOC(=O)C(CC)Sc1ccc2nnc(-c3cccc(F)c3)n2n1 (centres unmarked), the inhibition was 3.75%.

Set 3
SMILES: Clc1ccc(Nc2nnc(Cc3ccncc3)c3ccccc23)cc1
Read-out: enzyme activity
Action: inhibitor
Concentration: 0.5 µM
Relative to: control
Mitogen-activated protein kinase kinase kinase kinase 2 (MAP4K2, Homo sapiens, UniProt Q12851) — remaining activity: 107%.
For Protein kinase C iota type (PRKCI, Homo sapiens, UniProt P41743): remaining activity read 94.2%.
It gave 74.8% for remaining activity (Leucine-rich repeat serine/threonine-protein kinase 2 (LRRK2, Homo sapiens, UniProt Q5S007)).
Interleukin-1 receptor-associated kinase 4 (IRAK4, Homo sapiens, UniProt Q9NWZ3) — remaining activity: 85.1%.
It gave 94.9% for remaining activity (Cyclin-dependent kinase 9, with cyclin T1 (CDK9, Homo sapiens, UniProt P50750)).
For Mitogen-activated protein kinase 13 (MAPK13, Homo sapiens, UniProt O15264): remaining activity read 88.9%.
It gave 109% for remaining activity (Ephrin type-A receptor 5 (EPHA5, Homo sapiens, UniProt P54756)).
For RAC-gamma serine/threonine-protein kinase (AKT3, Homo sapiens, UniProt Q9Y243): remaining activity read 89.9%.
The remaining activity was 95.3% (Dual specificity mitogen-activated protein kinase kinase 6 (MAP2K6, Homo sapiens, UniProt P52564)).
The remaining activity was 45.7% (Mast/stem cell growth factor receptor Kit (KIT, Homo sapiens, UniProt P10721)).
Mitogen-activated protein kinase 12 (MAPK12, Homo sapiens, UniProt P53778) — remaining activity: 96.8%.
For Serine/threonine-protein kinase PLK2 (PLK2, Homo sapiens, UniProt Q9NYY3): remaining activity read 101%.
It gave 100% for remaining activity (Serine/threonine-protein kinase 38 (STK38, Homo sapiens, UniProt Q15208)).
It gave 95.4% for remaining activity (Tyrosine-protein kinase BTK (BTK, Homo sapiens, UniProt Q06187)).
It gave 114% for remaining activity (Casein kinase II subunit alpha (CSNK2A1, Homo sapiens, UniProt P68400)).
For Protein kinase C delta type (PRKCD, Homo sapiens, UniProt Q05655): remaining activity read 97.4%.
The remaining activity was 95% (Casein kinase I isoform alpha (CSNK1A1, Homo sapiens, UniProt P48729)).

Set 4
Cell line: mouse MPNST tumor cells
Method: high-content nuclear imaging
Item: cell number
Concentration: 10 µM
Time: 12 h
Notes: mean of 2 replicates
Relative to: plate mean
Reading: higher = more cells
COc1ccc(C[C@@H]2c3cc(OC)c(OC)cc3CC[N@+]2(C)CCC(=O)OCCCCCOC(=O)CC[N@@+]2(C)CCc3cc(OC)c(OC)cc3[C@H]2Cc2ccc(OC)c(OC)c2)cc1OC gave a nuclei count of -1.39 z-score and -1.01 z-score.
Cc1nccc(-c2cn(Cc3ccccc3)c3cnccc23)n1 has a nuclei count of 1.51 z-score.
CCC1(c2ccccc2)NC(=O)N(C)C1=O (centres unmarked) has a nuclei count of 2.33 z-score and 1.48 z-score.
CN=c1nc(-c2ccccc2)n(-c2ccccc2)s1 has a nuclei count of -0.333 z-score.
With COC(=O)C(N)Cc1ccc(Cl)cc1 (centres unmarked) the nuclei count was 1.51 z-score.
With CC1(C)CCC(C)(C)c2cc(NC(=O)c3ccc(C(=O)O)cc3)ccc21 the nuclei count was -1.31 z-score.
With COc1ccc2c3c1O[C@H]1C[C@@H](O)C=C[C@@]31CCN(C)C2 the nuclei count was -0.151 z-score and 0.724 z-score.
The nuclei count of C[C@](N)(Cc1ccc(O)cc1)C(=O)O is reported as 1.06 z-score.
For CO[C@@]1(NC(=O)C(C(=O)O)c2ccc(O)cc2)C(=O)N2C(C(=O)O)=C(CSc3nnnn3C)CO[C@@H]21 (some centres unmarked), the nuclei count was 0.0413 z-score.
With O=C(O)C1CN(Cc2ccc(-c3nc4cc(Cc5ccccc5F)ccc4s3)c(F)c2)C1 the nuclei count was 0.515 z-score.
The nuclei count of COc1ccc(Cn2ccc3ccc(C(=O)NO)cc32)cc1 is reported as 1.17 z-score.
The nuclei count of CCOC(=O)NNc1nncc2ccccc12 is reported as 2.91 z-score.

Excerpt of the above (set 4):
CN=c1nc(-c2ccccc2)n(-c2ccccc2)s1 has a nuclei count of -0.333 z-score.
For CO[C@@]1(NC(=O)C(C(=O)O)c2ccc(O)cc2)C(=O)N2C(C(=O)O)=C(CSc3nnnn3C)CO[C@@H]21 (some centres unmarked), the nuclei count was 0.0413 z-score.
With CC1(C)CCC(C)(C)c2cc(NC(=O)c3ccc(C(=O)O)cc3)ccc21 the nuclei count was -1.31 z-score.
The nuclei count of COc1ccc(Cn2ccc3ccc(C(=O)NO)cc32)cc1 is reported as 1.17 z-score.
With COC(=O)C(N)Cc1ccc(Cl)cc1 (centres unmarked) the nuclei count was 1.51 z-score.
The nuclei count of CCOC(=O)NNc1nncc2ccccc12 is reported as 2.91 z-score.
